Measured values gathered from unrelated publications.
Each line is one published result; not all experiments were run side by side. “And” joins repeats or separate records; there may be more than shown. Numbers after ± are the reported error.
UniProt P10632, sequence (whole entry, looked up): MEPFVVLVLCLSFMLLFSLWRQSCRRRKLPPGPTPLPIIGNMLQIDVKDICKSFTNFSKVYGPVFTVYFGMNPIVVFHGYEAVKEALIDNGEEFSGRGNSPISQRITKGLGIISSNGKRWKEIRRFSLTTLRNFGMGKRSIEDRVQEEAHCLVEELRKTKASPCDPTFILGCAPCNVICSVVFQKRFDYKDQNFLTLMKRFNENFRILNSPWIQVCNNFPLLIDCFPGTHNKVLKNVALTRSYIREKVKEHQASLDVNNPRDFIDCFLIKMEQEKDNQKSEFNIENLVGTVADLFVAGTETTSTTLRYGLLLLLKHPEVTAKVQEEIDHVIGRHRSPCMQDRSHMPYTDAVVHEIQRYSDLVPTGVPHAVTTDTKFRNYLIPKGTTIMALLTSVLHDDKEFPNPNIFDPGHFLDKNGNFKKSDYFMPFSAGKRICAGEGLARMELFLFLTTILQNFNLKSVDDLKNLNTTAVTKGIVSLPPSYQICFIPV

With O=C1CCC(N2C(=O)c3ccc(N4CCC(C(=O)N5CCC(CCN6CCC(CNC(=O)c7cccc(-c8noc(C(F)(F)F)n8)c7)(c7nc(-c8ccccc8)cs7)CC6)CC5)CC4)cc3C2=O)C(=O)N1 (stereo not shown) the AUC(0-t) was 11500 ± 2960 ng·h/mL (ICR mouse, plasma; intraperitoneal, 30 mg/kg).
With C=C(NC(=O)c1csc(-c2nc3c(cc2O)-c2nc(cs2)C(=O)NC(C(C)O)C(=O)NC(=C(C)OC)c2nc(cs2)C(=O)NC2c4nc(cs4)C(=O)NC(COC(=O)c4c5c6c(cccc6n4O)COC(=O)C(OC4CC(C)(O)C(N(C)C)C(C)O4)C2OC5)c2nc-3cs2)n1)C(N)=O (stereo not shown) the AUC(0-t) was 754 ng·h/mL (ICR mice, Streptococcus pneumoniae ATCC 49169 infected, immunocompromised, blood; intravenous, 8 mg/kg/day once daily).
With Nc1ncc(-c2cc(-c3cnn(CC(F)(F)F)c3)ncc2F)nc1C(=O)NC1CNCC(F)C1 (stereo not shown) the remaining binding was 100% (MKK7; KINOMEscan; 1 µM; relative to: DMSO control).
With OC1(C(F)(F)F)CCN(c2nc(Nc3ccnc(C(F)(F)F)c3)nc(-c3cccc(C(F)(F)F)n3)n2)C1 (stereo not shown) the AUC(0-t) was 29100 ± 2820 ng·h/mL (monkey, blood; oral, 3 mg/kg).
With Cc1cc(NC(=O)[C@H](O)c2cc(F)cc(F)c2)ccc1-c1cnc(N)c(C(=O)NC(C)C)c1 the AUC(0-t) was 1200 ng·h/mL (female nude mouse, plasma; oral, 3 mg/kg, single dose).
For CNC(=O)C1CCCN(C(=O)C2CC3CCC2N3C(=O)[C@@H]2C[C@@H](O)CN2C(=O)NCc2cccc(Cl)c2F)C1 (mixture of isomers), the remaining activity was 95.7% and 89.4% and 83.2% (Cytochrome P450 2C8 (CYP2C8, Homo sapiens, UniProt P10632); preincubation with NADPH; human; 50 µM; relative to: negative control).
COc1cnc2cccc(N3CCc4c(cc(Cn5ccnc5)cc4-c4cn(C)nc4C(F)(F)F)C3=O)c2c1 has an AUC(0-t) of 11300 ng·h/mL (male CD-1 mouse, plasma; intraperitoneal, 10 mg/kg).
COC1CN([C@H]2CC[C@H]([C@@]3(C)Oc4c(Cl)cc(C(=O)NCc5c(SC)cc(C)[nH]c5=O)c(C)c4O3)CC2)C1 — result for “log2 fold change”: 0.799 (RNA-seq, item: CDC42BPA mouse homolog; mouse, HT-1376 xenograft, whole blood; dose not given; relative to: vehicle).
Cc1nn(-c2nc3c(F)cc(F)cc3s2)c(O)c1C(c1ccc(C(F)(F)F)cc1)c1c(C)nn(-c2nc3c(F)cc(F)cc3s2)c1O gave an AUC(0-t) of 381000 ng·h/mL and 361000 ng·h/mL and 353000 ng·h/mL (ICR mouse, plasma; oral, 50 mg/kg).
CCCC[C@H](NC(C)=O)C(=O)N[C@@H](CO)C(=O)N[C@H](C(=O)N1CCC[C@H]1C(=O)N[C@]1(C)CCCCCCC=CCCC[C@@](C)(C(=O)N[C@@H](Cc2ccccc2)C(=O)N[C@@H](CCCCN)C(=O)N[C@@H](CCCNC(=N)N)C(=O)N[C@@H](CC(C)C)C(=O)N[C@@H](CCC(N)=O)C(N)=O)NC(=O)[C@H](CCCNC(=N)N)NC(=O)[C@H](CCCC)NC(=O)[C@H](CC(C)C)NC(=O)[C@H](CCCNC(=N)N)NC(=O)[C@H](CCCNC(=N)N)NC(=O)[C@H](CCCNC(=N)N)NC1=O)[C@@H](C)O — result for “remaining intact peptide”: 63.5% (proteinase K (Tritirachium album); proteolytic stability, LC-MS; 25 µM, 246.0 min, pH 7.4).
Cn1c2cc([S+](C)[O-])sc2c2cnn(Cc3cccc(N)c3)c(=O)c21 (stereo not shown) gave an AUC(0-t) of 27000 ng·h/mL (male BALB/c mouse, plasma; intraperitoneal, 10 mg/kg, single dose).
O=C1C2CC3CC1CC(C(=O)N1CCN(c4ccc([N+](=O)[O-])c5ncccc45)CC1)(C3)C2 has an AUC(0-t) of 26.8 ng·h/mL (male ICR mouse, plasma; oral, 5 mg/kg).
For O=C(c1ccccc1)N1C(c2ccc(OCC3CCN(CCCF)C3)cc2)c2ccc(O)cc2CC12CC2 (stereo not shown), the AUC(0-t) was 7360 ng·h/mL and 9410 ng·h/mL (C57BL/6J mouse, plasma; intraperitoneal, 25 mg/kg).
